Assay results of several laboratories.
Each numbered part is a random draw from the data of one study; scales do not carry over between parts. Positions count from the first letter of the parent shown.
UniProt P41143, sequence (whole entry, looked up): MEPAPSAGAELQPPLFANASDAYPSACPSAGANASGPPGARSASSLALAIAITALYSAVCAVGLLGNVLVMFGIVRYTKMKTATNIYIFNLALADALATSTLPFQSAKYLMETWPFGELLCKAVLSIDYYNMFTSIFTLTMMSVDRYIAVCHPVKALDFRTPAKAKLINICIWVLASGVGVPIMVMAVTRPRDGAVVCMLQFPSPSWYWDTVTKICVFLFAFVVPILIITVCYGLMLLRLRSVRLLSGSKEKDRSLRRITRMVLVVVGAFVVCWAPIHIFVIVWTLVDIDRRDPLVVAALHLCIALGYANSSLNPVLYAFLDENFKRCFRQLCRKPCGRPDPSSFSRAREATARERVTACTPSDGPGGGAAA
UniProt Q96SW2, sequence (whole entry, looked up): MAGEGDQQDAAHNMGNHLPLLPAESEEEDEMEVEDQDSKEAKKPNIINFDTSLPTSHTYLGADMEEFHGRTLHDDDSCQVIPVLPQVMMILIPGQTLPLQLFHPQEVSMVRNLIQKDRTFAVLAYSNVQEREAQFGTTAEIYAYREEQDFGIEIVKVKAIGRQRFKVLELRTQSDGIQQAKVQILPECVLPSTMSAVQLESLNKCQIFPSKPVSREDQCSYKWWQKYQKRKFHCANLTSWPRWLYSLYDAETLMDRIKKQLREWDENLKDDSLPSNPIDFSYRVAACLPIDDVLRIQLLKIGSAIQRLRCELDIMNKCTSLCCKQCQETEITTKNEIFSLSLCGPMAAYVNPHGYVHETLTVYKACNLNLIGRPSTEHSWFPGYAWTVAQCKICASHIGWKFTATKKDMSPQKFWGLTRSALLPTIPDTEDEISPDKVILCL

Study 1
Target: CCNA1, cyclin fold, Cln2 fusion (human)
Technique: yeast growth competition, sequencing
Matrix: yeast
Setting: weak parent motif
Baseline: not given
Reading: higher = stronger binding
Starting sequence: viral docking peptide; KGVKRKLFAEDSS
| Change | normalised enrichment score |
| --- | --- |
| KGNKRKLFAEDSS [V3N] | 0.0865 |
| KGTKRKLFAEDSS [V3T] | 0.578 |
| KGVKRKLFATDSS [E10T] | 0.43 |

Single results of other studies
| Substance | target | read-out | technique | form | tested at | endpoint | value |
| --- | --- | --- | --- | --- | --- | --- | --- |
| O=C1CCC(N2Cc3c(ccc4c3OCC43CCN(Cc4ccccc4)CC3)C2=O)C(=O)N1 (stereo not drawn) | Protein cereblon (CRBN, Homo sapiens, UniProt Q96SW2) | cell-free assay | TR-FRET | – | 370.4 µM | inhibition | 81.6% |
| O=C(O)[C@H]1[C@H](Cn2nnc3ccccc3c2=O)CC[C@@H]1C(=O)c1ccc(OCCC2CCOCC2)cc1 | OPRD1 (Homo sapiens, UniProt P41143) | ligand displacement | – | – | 10 µM | inhibition | 1.43% |
| FHYQDPFPL | HLA class I histocompatibility antigen, B alpha chain, allele B*15:09 (Homo sapiens, UniProt P01889) | peptide-MHC binding | – | peptide | concentration not given | binding | active |
